Results collected from several papers.
Every numbered part comes from another study and shows a few of its results, in no order.
Chain of UniProt Q99558 (whole entry, looked up): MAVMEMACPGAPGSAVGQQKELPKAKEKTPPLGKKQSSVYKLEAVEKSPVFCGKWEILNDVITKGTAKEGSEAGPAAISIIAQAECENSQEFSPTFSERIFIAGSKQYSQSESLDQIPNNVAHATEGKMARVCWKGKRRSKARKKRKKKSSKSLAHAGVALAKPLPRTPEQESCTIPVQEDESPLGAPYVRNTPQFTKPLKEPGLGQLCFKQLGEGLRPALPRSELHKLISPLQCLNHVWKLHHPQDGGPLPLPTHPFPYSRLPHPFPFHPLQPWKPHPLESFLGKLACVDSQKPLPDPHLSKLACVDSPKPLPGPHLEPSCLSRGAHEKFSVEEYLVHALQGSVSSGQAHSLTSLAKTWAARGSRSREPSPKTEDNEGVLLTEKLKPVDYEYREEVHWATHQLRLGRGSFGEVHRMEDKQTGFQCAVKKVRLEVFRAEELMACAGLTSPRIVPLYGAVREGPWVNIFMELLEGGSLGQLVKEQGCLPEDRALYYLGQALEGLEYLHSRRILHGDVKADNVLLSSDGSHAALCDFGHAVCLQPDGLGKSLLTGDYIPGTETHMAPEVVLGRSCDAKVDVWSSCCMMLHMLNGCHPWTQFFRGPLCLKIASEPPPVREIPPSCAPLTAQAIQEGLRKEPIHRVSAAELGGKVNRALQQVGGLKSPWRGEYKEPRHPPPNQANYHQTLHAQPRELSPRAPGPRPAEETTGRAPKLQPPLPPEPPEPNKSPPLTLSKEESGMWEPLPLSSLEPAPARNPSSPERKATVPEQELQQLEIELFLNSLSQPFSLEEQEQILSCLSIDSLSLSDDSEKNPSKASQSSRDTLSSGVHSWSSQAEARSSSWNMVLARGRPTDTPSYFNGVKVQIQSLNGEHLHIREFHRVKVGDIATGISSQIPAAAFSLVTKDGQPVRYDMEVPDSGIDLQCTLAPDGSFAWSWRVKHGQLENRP
Chain of UniProt P42685 (whole entry, looked up): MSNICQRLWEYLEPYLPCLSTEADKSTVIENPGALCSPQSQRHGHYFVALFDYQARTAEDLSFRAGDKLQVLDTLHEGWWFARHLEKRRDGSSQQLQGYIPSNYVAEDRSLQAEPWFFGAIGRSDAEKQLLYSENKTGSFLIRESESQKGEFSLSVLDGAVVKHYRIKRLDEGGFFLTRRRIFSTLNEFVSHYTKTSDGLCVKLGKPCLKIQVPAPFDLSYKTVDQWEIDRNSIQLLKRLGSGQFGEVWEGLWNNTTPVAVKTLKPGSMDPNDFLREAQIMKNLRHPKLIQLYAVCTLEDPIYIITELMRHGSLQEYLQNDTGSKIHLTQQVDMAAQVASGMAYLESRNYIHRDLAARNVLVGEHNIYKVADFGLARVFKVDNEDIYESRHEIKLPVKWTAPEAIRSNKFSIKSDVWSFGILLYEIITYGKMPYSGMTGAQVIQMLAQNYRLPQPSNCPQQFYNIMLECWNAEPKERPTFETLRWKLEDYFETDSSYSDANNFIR
Chain of UniProt Q96PY6 (whole entry, looked up): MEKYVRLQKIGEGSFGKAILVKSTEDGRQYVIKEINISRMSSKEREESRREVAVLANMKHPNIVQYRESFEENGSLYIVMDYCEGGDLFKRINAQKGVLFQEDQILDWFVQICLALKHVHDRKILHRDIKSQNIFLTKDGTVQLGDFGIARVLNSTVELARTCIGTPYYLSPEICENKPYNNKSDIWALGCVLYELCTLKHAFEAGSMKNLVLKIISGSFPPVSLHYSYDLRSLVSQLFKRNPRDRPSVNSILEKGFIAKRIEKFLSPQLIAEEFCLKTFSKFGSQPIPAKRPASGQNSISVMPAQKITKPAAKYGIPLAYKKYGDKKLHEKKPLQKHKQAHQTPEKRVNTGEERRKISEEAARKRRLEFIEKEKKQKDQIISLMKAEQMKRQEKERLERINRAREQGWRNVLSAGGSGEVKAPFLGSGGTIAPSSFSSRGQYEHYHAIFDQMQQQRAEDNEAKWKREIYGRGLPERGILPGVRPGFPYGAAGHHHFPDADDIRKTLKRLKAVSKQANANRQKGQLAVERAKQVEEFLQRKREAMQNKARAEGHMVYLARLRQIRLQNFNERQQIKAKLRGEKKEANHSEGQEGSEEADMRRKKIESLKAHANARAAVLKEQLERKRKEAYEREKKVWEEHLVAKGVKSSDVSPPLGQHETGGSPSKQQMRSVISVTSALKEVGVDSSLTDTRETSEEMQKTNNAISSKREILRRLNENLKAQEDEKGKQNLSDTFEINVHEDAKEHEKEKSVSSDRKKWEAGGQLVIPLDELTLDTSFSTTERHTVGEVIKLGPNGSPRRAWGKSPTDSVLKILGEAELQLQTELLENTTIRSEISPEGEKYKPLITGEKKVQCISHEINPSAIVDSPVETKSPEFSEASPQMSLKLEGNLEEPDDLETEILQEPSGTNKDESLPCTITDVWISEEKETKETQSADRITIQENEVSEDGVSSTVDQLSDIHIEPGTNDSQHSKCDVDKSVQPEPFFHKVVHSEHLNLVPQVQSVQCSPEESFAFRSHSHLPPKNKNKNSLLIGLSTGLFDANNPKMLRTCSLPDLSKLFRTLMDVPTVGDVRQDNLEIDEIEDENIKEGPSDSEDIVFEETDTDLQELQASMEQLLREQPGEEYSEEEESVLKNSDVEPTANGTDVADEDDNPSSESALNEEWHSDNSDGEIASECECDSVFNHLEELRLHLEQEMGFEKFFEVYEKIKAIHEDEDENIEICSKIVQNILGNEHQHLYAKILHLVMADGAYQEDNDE
Chain of UniProt Q8WTQ7 (whole entry, looked up): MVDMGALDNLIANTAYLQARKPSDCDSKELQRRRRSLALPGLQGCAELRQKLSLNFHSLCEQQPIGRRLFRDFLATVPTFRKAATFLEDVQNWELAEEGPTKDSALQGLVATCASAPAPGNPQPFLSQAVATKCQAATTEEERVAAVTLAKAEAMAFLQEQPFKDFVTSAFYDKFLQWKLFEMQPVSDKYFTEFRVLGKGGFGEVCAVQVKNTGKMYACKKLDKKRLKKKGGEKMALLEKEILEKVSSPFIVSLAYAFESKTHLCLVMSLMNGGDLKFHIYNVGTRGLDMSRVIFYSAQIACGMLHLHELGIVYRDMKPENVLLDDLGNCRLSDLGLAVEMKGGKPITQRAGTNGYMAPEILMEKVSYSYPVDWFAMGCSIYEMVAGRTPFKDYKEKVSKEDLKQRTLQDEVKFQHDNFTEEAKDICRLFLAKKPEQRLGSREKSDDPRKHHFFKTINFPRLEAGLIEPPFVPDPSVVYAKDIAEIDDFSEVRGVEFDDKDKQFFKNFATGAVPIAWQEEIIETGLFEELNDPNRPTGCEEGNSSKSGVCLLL
Chain of UniProt Q9Y6M4 (whole entry, looked up): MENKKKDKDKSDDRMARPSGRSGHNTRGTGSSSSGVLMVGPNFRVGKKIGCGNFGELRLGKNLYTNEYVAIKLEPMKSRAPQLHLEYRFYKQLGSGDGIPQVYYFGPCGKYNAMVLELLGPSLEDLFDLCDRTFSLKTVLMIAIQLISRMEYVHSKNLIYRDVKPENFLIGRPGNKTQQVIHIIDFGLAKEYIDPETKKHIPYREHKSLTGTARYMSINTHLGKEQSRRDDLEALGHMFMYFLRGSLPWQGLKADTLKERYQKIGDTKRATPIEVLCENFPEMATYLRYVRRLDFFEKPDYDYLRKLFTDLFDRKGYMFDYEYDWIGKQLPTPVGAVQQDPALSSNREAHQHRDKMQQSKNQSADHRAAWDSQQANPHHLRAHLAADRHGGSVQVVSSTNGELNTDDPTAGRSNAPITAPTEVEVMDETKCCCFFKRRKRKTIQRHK
Chain of UniProt P07333 (whole entry, looked up): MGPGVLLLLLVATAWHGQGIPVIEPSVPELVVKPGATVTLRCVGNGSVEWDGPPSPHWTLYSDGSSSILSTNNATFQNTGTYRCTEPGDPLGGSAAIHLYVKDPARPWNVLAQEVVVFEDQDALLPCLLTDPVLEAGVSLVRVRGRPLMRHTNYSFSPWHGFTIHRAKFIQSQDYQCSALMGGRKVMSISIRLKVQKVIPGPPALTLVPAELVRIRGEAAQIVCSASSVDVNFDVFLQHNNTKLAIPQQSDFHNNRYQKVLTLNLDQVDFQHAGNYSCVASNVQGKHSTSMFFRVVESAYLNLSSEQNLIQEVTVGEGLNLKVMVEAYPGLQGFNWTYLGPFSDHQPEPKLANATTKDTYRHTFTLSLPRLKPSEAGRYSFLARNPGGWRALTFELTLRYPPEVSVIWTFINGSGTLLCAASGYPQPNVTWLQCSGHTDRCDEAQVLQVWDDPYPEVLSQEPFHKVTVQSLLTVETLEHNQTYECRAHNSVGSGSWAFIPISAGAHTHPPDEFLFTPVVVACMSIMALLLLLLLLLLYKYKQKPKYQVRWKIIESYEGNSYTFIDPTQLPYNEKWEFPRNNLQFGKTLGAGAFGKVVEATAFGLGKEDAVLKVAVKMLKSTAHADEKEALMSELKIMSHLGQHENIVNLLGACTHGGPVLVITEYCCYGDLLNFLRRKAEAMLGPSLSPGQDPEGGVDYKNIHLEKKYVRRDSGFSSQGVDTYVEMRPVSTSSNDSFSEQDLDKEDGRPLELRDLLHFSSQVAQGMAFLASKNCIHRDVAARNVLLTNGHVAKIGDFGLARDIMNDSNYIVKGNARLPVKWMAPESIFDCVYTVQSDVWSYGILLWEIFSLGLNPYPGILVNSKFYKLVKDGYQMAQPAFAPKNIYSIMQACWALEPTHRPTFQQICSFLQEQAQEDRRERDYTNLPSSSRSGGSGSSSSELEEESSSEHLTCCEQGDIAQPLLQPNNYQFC

Set 1
Target: UBE2R2 UBC core domain (UniProt Q712K3)
Technique: yeast two-hybrid
Matrix: yeast
Notes: mostly zero background
Baseline: not given
Direction: higher = stronger interaction
Quantity: lacZ reporter activity
B1: RNF38 RING domain (UniProt Q9H0F5); chain PNNHQSEQTLCVVCMCDFESRQLLRVLPCNHEFHAKCVDKWLKANRTCPICRADASEVHRDS
B2: TRIM43 RING domain (UniProt Q96BQ3); chain FSHAFQKELTCVICLNYLVDPVTICCGHSFCRPCLCLSWEEAQSPANCPACREPSPKMDFKT
B3: TRAF5 RING domain (UniProt O00463); chain FVERLEERYKCAFCHSVLHNPHQTGCGHRFCQHCILSLRELNTVPICPVDKEVIKSQEVFK
B4: TRIM5 RING domain (UniProt Q9C035); chain ILVNVKEEVTCPICLELLTQPLSLDCGHSFCQACLTANHKKSMLDKGESSCPVCRISYQPENIRP
B5: MKRN1 RING domain (UniProt Q9UHC7); chain FAVQRSKDMVCGICMEVVYEKANPSERRFGILSNCNHTYCLKCIRKWRSAKQFESKIIKSCPECRITSNFVIPSE
Target sequence (chain): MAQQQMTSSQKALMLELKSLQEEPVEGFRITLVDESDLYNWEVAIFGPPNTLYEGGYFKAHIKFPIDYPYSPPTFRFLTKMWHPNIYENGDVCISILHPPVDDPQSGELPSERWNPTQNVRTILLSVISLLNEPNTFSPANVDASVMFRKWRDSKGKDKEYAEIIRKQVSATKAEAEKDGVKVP
GAAPGPEAAECLVCSELALLVLFSPCQHRTVCEECARRMKKCIRCQVVVSKKLRPD (MIB2 RING domain (UniProt Q96AX9)): 0
B1 (RNF38 RING domain): 0
DHGAVGQEMCCPICCSEYVKGEVATELPCHHYFHKPCVSIWLQKSGTCPVCRCMFPPPL (PJA1 RING domain (UniProt Q8NG27)): 0
B2 (TRIM43 RING domain): 0
B3 (TRAF5 RING domain): 0
B4 (TRIM5 RING domain): 0
QVDKAVFHMQSVKCLKCQEQKRAVLPCQHAALCELCAEGSECPICQPGRAHTLQS (UNK RING domain (UniProt Q9C0B0)): 0
B5 (MKRN1 RING domain): 0

Set 2
SMILES: COc1cccc(CNC(=O)c2nc3scc(COCc4ccc(C(=O)O)cc4)c3c(=O)[nH]2)c1
Observed: cell-free assay
Technique: competition with immobilised ligand
Tested at: 1 µM
Quantity: remaining binding
FES (Homo sapiens, UniProt P07332): 94.5%
CSF1R (Homo sapiens, UniProt P07333): 100%
LIM domain kinase 1 (LIMK1, Homo sapiens, UniProt P53667): 96.8%
MAP3K5 (Homo sapiens, UniProt Q99683): 97.8%
TEK (Homo sapiens, UniProt Q02763): 100%

Set 3
Target: Prothrombin, mature alpha-thrombin (F2, Homo sapiens, UniProt P00734)
Technique: aptamer microarray, sandwich
Molecule type: DNA with 2'F-ANA
Matrix: in vitro
Tested at: 200 nM
Notes: whole 15-mer aptamer, many near background
Together with: Cy3 exosite-II aptamer, 400 nM
Direction: higher = stronger binding
Quantity: mean fluorescence intensity
Sequence: GGTTGGTGTGGTTGG
2'F-ANA at 2 3 6 8 9 10 11 13 14 15: 241 a.u.
2'F-ANA at 2 4 5 7 8 9 11 12 15: 168 a.u.
2'F-ANA at 6 12 13: 655 a.u.
2'F-ANA at 1 2 4 6 7 8 9 10 12 14: 56 a.u.
2'F-ANA at 2 3 5 10 11 12 13 15: 58.2 a.u.
2'F-ANA at 4 6 7 8 10 12 13 14: 60.1 a.u.
2'F-ANA at 6 7 8 9 10 13 15: 135 a.u.
2'F-ANA at 1 3 4 6 7 12 13: 279 a.u.

Set 4
Compound: CCCCc1c(-c2ccc(O)cc2)[nH]c2nccnc12
Observed: enzyme activity
Mode: inhibitor
Tested at: 0.5 µM
Baseline: control
Quantity: remaining activity
MAP2K2 (Homo sapiens, UniProt P36507): 84.7%
CSNK1G3 (Homo sapiens, UniProt Q9Y6M4): 82.3%
MST1R (Homo sapiens, UniProt Q04912): 101%
GRK7 (Homo sapiens, UniProt Q8WTQ7): 82.4%
MAPKAPK2 (Homo sapiens, UniProt P49137): 92.6%
CSNK1G2 (Homo sapiens, UniProt P78368): 78.5%
EPHA3 (Homo sapiens, UniProt P29320): 95%
JAK3 (Homo sapiens, UniProt P52333): 92.2%
NEK1 (Homo sapiens, UniProt Q96PY6): 92.2%
ARAF (Homo sapiens, UniProt P10398): 92.6%
FGFR1 (Homo sapiens, UniProt P11362): 81.8%
MAP3K14 (Homo sapiens, UniProt Q99558): 95.4%
ACVR1B (Homo sapiens, UniProt P36896): 117%
FRK (Homo sapiens, UniProt P42685): 87.6%
